# Measurements gathered from unrelated publications.
# Compare with care: the assays were run in different laboratories. Numbers after ± are the reported error.
# B1: Urtica dioica agglutinin; sequence looked up; chain QRCGSQGGGGTCPALWCCSIWGWCGDSEPYCGRTCENKCWSGERSDHRCGAAVGNPPCGQDRCCSVHGWCGGGNDYCSGSKCQYRCSSSVRGPRVALSGNSTANSIGNVVVTEPLFDQMFSHRKDCPSQGFYSYHSFLVAAESFPAFGTIGDVATRKREVAAFLAHISQATSGERSDVENPHAWGLCHINTTTVTENDFCTSSDWPCAAGKKYSPRGPIQLTHNFNYGLAGQAIGEDLIQNPDLVEKDPIISFKTALWFWMSQHDNKPSCHDIVLNANSAANRIPNKGVIGNIISRAFGHDDFAVRSSSIGFYKRYCDMLGVSYGHDLKYWFDNTPSSEFQRIQMRVAA
Substance,tested on,test,system,setting,quantity,value
O=C(Cc1csc2nc(-c3ccc(Br)cc3)cn12)NN=C1CCC(c2ccccc2)CC1 (centres unmarked),feline herpesvirus,viral cytopathic effect,CRFK,,EC50,> 100 µg/mL
O=C1C(O)=C([C@H]2CC[C@H](c3ccc(Cl)cc3)CC2)C(=O)c2ccccc21,Plasmodium berghei,,"hepatocytes, liver stage",2 h,EC50,~0.106 µM
O=c1cc(OCc2ccc(I)cc2)oc2ccc(OCc3cccc(Cl)c3)c(O)c12,Hepatitis C virus,"viral replication, inhibitor","Huh-7, GETYPE1","96 h, replicon",EC50,3 to 4 µM
NC1=NC(=O)N(CC(O)C(F)(F)F)CN1 (centres unmarked),herpes simplex virus 1,cytopathic effect,"HEL, KOS, TK-deficient, acyclovir-resistant",,EC50,> 100 µM
CC(C)(C)NC(=O)N(CCCCCCN1C[C@H](O)[C@@H](O)[C@H](O)[C@H]1CO)C1CCCCC1,bovine viral diarrhea virus,,MDBK,22 h,EC50,0.25 ± 0.05 µM
N/C(=N\O)c1cc(O)c(O)c(O)c1,human cytomegalovirus,"viral spread, GFP reporter","ARPE-19, BADrUL131-Y4 (AD169, GFP)",14 d,EC50,125 ± 19 µM
O=C(NCc1ccc(Br)cc1F)c1cn(Cc2ccc(F)cc2)cc(O)c1=O,Human betaherpesvirus 5,"viral replication, inhibitor",,7 days,EC50,0.61 µM
CN[C@@](C)(C[18F])C(=O)O,,,"SCID mouse A549 xenograft, kidney","120 min, post injection",tissue uptake,4.1 ± 0.9 %ID/g
N#CC1(C#N)C2C=CC(c3coc4cccc2c34)C1(C#N)C#N (centres unmarked),Alphacoronavirus 1,"viral replication, inhibitor",CRFK,2 h,EC50,6.2 µM
COc1cc(CN2CC3(CCN(S(=O)(=O)c4cn(C)cn4)CC3)c3c(n(C)c4cc(OC)ccc34)[C@H]2CO)cc(OC)c1,respiratory syncytial virus,cytopathic effect,"HEp-2, A2","5 days, resynthesized sample",EC50,26.8 µM
COc1cc(/C=C2\CC/C(=C\c3ccc(O)c(OC)c3)C2=O)ccc1O,dengue virus 2,"viral replication, plaque reduction",BHK-21,,EC50,5.37 ± 0.62 µM
COc1c(C)c2c(c(O)c1C/C=C(\C)CCC(=O)O)C(=O)OC2,Zika virus,"viral cytopathic effect, visual CPE scoring",Vero,,EC50,1.8 µM
O=C(N/N=C1\C(=O)Nc2ccc(Cl)cc21)N/N=C1\C(=O)Nc2ccc(Cl)cc21,respiratory syncytial virus,viral replication,HeLa,,EC50,> 100 µM
COC(=O)c1cc(N(C)C(=O)c2ccn3ncc(-c4ccc(C(=O)O)cc4)c3c2)ccc1Cl,Cryptosporidium parvum,cytopathic effect,HCT-8,48 h,EC50,> 20 µM
NC(=O)c1ncn([C@@H]2O[C@H](CO)[C@@H](O)[C@H]2O)n1,Alphacoronavirus 1,"viral replication, inhibitor",CRFK,2 h,EC50,74.6 µM
Cc1ccc(S(=O)(=O)N2C(=O)CSC2c2ccc(Cl)cc2)cc1 (centres unmarked),herpes simplex virus 1,viral cytopathicity,"HEL, KOS TK-deficient acyclovir-resistant",,EC50,> 100 µM
NC(=O)c1ncn([C@@H]2O[C@H](CO)[C@@H](O)[C@H]2O)n1,respiratory syncytial virus,viral cytopathic effect,HeLa,,EC50,2.9 ± 1.3 µM
NC(=O)c1ncn([C@@H]2O[C@H](CO)[C@@H](O)[C@H]2O)n1,respiratory syncytial virus,viral replication,HeLa,,EC50,30 µM
O=C(N/N=C1\C(=O)Nc2ccccc21)N/N=C1\C(=O)Nc2ccccc21,respiratory syncytial virus,viral replication,HeLa,,EC50,> 100 µM
CC1(C)OB(c2ccc(NC(=O)c3cn(Cc4ccc(F)cc4)cc(O)c3=O)cc2)OC1(C)C,Human betaherpesvirus 5,"viral replication, inhibitor",,7 days,EC50,3 µM
COc1cc(O)c2c(c1O)C(=O)C(CC(C)O)=C(C)C2=O (centres unmarked),Trichomonas vaginalis,viability,,17 h,EC50,40 µM
CC(C)(C)NC(=O)N[C@H](C(=O)N1C[C@H]2[C@@H]([C@H]1C(=O)NC(CC1CCC1)C(=O)C(N)=O)C2(C)C)C(C)(C)C (some centres unmarked),Hepatitis C virus,"viral replication, inhibitor","Huh7.5, GETYPE1B","72 h, replicon",EC50,0.21 µM
O=Cc1cc(Cn2ccc(=O)[nH]c2=O)ccc1O,human cytomegalovirus,cytopathic effect,"HEL fibroblasts, Davis",,EC50,> 100 µM
O=C(CN1c2c(n[nH]c2-c2cccc(Cl)c2)-c2ccccc2S1(=O)=O)NN=Cc1cccc([N+](=O)[O-])c1,HIV-1,viral replication,PBMC,,EC50,92.4 µM
Cc1cccc(-c2ccc([C@@H]3[C@@H](CO)N4CCCCN(S(=O)(=O)c5cn(C)cn5)C[C@@H]34)cc2)c1,respiratory syncytial virus,cytopathic effect,"HEp-2, A2","5 days, original sample",EC50,1.6 µM
COC(=O)N[C@H](C(=O)N1CCC[C@H]1c1ncc(-c2ccc(-c3ccc(-c4cnc([C@@H]5CCCN5C(=O)[C@@H](NC(=O)OC)C(C)C)[nH]4)cc3)cc2)[nH]1)C(C)C,hepatitis C virus,"viral replication, transient replicon",genotype 1b replicon NS5A L31V,,EC50,6.1e-05 ± 1.5e-05 µM
O=C(Nc1ccc(F)cc1)Oc1ccc[nH]c1=O,Alphacoronavirus 1,"viral replication, inhibitor",CRFK,,EC50,> 100 µM
COC(=O)c1c[nH]c2ccc(CN3CCN(c4ccccc4)CC3)cc2c1=O,Plasmodium berghei,,"HepG2, liver stage",44 h,EC50,0.085 to 0.09 µM
O=C(CN1c2c(n[nH]c2-c2cccc(Cl)c2)-c2ccccc2S1(=O)=O)NN=Cc1ccc(Br)cc1,HIV-1,viral replication,PBMC,,EC50,5.2 µM
O=C(NCc1cc(F)c(F)cc1F)c1cn(Cc2ccc(F)cc2)cc(O)c1=O,Human betaherpesvirus 5,"viral replication, inhibitor",,7 days,EC50,0.7 µM
Nc1ccn(C[C@@H](CO)OCP(=O)(O)O)c(=O)n1,Human alphaherpesvirus 1,antiviral activity,"HEL, KOS, TK-deficient, acyclovir-resistant",,EC50,2 ± 1.4 µM
O=C(NCc1ccc(F)cc1F)c1cn(Cc2ccc(F)cc2)ccc1=O,Human betaherpesvirus 5,"viral replication, inhibitor",,7 days,EC50,6.6 µM
O=C1Nc2ccccc2/C1=N/NC(=S)N/N=C1\C(=O)Nc2ccccc21,respiratory syncytial virus,viral replication,HeLa,,EC50,> 100 µM
Cc1ccc(S(=O)(=O)N2C(=O)CSC2c2ccccc2Cl)cc1 (centres unmarked),herpes simplex virus 1,viral cytopathicity,"HEL, KOS TK-deficient acyclovir-resistant",,EC50,> 100 µM
O=C(Nc1ccc(F)cc1)c1cn(Cc2ccc(F)cc2)cc(O)c1=O,Human betaherpesvirus 5,"viral replication, inhibitor",,7 days,EC50,0.87 µM
Cc1ccc(S(=O)(=O)N2C(=O)CSC2c2ccc(C(C)C)cc2)cc1 (centres unmarked),herpes simplex virus 1,viral cytopathicity,"HEL, KOS",,EC50,> 100 µM
O=C(NCCc1ccc(F)cc1F)c1cn(Cc2ccc(F)cc2)cc(O)c1=O,Human betaherpesvirus 5,"viral replication, inhibitor",,7 days,EC50,0.43 µM
Nc1ccn(C[C@@H](CO)OCP(=O)(O)O)c(=O)n1,human cytomegalovirus,cytopathic effect,"HEL fibroblasts, AD-169",,EC50,0.84 ± 0.21 µM
COc1ccc2c3c([nH]c2c1)[C@H](CO)N(Cc1ccccc1)CC31CCN(C(=O)Cc2ccccc2)CC1,respiratory syncytial virus,cytopathic effect,"HEp-2, A2","5 days, original sample",EC50,13.7 µM
B1 (Urtica dioica agglutinin),feline herpesvirus,"viral cytopathic effect, microscopy",CRFK,,EC50,1.4 µg/mL
Cc1ccc(S(=O)(=O)N2C(=O)CSC2c2ccc([N+](=O)[O-])cc2)cc1 (centres unmarked),herpes simplex virus 1,viral cytopathicity,"HEL, KOS",,EC50,> 100 µM

# For quick reference, copied from above:
Substance,tested on,test,system,setting,quantity,value
O=C(NCc1ccc(F)cc1F)c1cn(Cc2ccc(F)cc2)ccc1=O,Human betaherpesvirus 5,"viral replication, inhibitor",,7 days,EC50,6.6 µM
O=C1Nc2ccccc2/C1=N/NC(=S)N/N=C1\C(=O)Nc2ccccc21,respiratory syncytial virus,viral replication,HeLa,,EC50,> 100 µM
Cc1ccc(S(=O)(=O)N2C(=O)CSC2c2ccccc2Cl)cc1 (centres unmarked),herpes simplex virus 1,viral cytopathicity,"HEL, KOS TK-deficient acyclovir-resistant",,EC50,> 100 µM
